# Published values pooled from the literature.
# By UniProt entry, the sequences of proteins in these tests, tags left out. Chains listed by the source or under a name are the forms on record and can include a tag or linker. Residues count along the entry.
# UniProt P33534, whole entry: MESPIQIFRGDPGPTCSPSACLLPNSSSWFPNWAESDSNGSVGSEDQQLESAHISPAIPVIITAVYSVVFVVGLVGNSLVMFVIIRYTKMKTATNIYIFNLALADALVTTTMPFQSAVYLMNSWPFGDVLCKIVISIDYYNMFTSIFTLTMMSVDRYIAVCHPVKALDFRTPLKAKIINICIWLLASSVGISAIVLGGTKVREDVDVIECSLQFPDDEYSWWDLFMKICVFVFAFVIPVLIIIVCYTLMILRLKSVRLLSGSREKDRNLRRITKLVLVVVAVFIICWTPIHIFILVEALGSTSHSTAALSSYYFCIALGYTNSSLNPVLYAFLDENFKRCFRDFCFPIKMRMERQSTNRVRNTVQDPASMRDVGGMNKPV
# UniProt P37231, 176-477 with tags or gaps isoform 2 limits assumed: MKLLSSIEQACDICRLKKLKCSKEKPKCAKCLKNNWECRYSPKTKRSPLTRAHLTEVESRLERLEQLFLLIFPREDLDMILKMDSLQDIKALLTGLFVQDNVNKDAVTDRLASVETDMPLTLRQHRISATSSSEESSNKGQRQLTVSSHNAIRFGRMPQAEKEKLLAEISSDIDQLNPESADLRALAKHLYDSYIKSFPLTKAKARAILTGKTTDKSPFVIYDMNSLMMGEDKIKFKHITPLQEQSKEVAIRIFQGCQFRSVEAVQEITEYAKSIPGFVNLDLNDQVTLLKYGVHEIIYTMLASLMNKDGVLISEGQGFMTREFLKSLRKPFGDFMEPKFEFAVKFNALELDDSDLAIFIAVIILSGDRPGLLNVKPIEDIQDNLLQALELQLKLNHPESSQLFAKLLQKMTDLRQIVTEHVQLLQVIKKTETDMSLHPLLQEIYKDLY
# UniProt P17405, 47-631 limits assumed: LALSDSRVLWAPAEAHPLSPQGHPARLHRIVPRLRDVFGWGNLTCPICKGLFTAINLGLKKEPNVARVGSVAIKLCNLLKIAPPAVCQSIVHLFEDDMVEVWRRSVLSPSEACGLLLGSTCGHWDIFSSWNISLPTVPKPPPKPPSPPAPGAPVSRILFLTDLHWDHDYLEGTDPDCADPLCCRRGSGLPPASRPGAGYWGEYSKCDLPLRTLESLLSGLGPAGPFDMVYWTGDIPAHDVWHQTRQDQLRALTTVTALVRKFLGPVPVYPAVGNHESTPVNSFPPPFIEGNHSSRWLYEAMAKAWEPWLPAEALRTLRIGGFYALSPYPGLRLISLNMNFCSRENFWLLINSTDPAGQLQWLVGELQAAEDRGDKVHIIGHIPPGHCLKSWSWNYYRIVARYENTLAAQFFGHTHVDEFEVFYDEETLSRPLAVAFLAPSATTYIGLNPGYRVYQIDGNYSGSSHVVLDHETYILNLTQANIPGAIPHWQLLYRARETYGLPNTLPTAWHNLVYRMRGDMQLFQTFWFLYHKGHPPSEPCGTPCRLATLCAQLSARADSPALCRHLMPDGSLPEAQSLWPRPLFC
# UniProt P06276, 29-602 limits assumed: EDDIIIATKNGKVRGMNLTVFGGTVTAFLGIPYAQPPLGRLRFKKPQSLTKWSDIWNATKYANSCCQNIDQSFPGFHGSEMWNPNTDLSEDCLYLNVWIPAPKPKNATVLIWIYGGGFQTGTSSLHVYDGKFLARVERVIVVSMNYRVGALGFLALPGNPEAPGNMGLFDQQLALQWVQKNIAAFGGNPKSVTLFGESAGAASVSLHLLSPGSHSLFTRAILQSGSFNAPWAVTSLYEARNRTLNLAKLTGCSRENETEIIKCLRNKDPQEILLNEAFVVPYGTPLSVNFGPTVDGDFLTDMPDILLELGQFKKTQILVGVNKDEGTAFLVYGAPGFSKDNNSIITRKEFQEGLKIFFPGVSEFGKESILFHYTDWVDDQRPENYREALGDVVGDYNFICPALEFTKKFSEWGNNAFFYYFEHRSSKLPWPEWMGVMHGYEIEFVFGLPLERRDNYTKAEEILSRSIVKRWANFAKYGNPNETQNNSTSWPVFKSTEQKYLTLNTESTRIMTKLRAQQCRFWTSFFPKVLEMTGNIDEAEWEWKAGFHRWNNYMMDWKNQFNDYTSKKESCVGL
# UniProt Q9Y2U5, whole entry: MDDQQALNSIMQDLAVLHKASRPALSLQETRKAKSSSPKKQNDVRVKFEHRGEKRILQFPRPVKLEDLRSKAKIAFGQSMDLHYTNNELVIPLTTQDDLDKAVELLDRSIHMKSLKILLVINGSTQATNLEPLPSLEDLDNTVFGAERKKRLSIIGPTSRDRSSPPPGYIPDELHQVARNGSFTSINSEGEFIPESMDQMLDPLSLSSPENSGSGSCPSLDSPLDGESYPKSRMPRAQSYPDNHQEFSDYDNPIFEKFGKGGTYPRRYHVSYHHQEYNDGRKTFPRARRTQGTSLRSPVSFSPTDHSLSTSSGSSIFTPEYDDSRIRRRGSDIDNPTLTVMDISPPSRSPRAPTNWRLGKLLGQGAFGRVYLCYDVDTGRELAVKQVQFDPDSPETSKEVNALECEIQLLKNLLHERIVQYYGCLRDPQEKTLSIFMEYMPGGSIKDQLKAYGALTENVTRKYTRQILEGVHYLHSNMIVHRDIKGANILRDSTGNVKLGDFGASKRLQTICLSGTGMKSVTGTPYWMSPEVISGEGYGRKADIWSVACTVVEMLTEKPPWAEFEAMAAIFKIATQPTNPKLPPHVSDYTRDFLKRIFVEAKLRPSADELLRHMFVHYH
# UniProt P9WGR1, whole entry: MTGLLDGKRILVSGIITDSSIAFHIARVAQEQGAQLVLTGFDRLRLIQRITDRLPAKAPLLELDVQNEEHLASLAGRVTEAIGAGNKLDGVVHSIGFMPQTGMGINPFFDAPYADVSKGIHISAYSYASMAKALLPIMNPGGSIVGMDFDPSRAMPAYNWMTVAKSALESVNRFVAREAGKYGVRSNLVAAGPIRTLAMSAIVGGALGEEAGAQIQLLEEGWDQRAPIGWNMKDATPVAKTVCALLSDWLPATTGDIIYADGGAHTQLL
# UniProt Q8T632, 1-509: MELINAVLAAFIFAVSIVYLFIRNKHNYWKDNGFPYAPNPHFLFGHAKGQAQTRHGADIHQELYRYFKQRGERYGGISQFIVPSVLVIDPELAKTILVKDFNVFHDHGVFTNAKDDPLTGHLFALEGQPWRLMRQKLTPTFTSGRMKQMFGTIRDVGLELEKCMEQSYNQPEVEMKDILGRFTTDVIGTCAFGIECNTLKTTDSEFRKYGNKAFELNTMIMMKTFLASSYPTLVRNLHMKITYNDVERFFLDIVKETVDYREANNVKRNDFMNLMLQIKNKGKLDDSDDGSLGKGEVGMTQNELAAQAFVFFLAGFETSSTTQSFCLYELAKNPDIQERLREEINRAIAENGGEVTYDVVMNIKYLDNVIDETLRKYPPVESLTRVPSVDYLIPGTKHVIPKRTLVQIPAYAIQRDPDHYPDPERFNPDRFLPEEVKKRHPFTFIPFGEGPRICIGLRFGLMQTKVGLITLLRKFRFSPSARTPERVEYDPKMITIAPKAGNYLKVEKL
# UniProt P41145, whole entry: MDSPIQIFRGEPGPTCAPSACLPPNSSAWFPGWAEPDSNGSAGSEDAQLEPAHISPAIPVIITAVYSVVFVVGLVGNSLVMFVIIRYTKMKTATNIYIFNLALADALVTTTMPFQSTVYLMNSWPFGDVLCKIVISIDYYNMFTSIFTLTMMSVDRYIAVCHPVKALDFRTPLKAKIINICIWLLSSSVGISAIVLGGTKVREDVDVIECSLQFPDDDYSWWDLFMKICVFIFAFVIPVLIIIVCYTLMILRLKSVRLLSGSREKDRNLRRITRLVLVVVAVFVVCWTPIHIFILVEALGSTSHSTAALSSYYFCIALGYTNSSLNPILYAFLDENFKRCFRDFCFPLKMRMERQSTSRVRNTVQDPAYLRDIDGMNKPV
# UniProt Q04912, whole entry, looked up: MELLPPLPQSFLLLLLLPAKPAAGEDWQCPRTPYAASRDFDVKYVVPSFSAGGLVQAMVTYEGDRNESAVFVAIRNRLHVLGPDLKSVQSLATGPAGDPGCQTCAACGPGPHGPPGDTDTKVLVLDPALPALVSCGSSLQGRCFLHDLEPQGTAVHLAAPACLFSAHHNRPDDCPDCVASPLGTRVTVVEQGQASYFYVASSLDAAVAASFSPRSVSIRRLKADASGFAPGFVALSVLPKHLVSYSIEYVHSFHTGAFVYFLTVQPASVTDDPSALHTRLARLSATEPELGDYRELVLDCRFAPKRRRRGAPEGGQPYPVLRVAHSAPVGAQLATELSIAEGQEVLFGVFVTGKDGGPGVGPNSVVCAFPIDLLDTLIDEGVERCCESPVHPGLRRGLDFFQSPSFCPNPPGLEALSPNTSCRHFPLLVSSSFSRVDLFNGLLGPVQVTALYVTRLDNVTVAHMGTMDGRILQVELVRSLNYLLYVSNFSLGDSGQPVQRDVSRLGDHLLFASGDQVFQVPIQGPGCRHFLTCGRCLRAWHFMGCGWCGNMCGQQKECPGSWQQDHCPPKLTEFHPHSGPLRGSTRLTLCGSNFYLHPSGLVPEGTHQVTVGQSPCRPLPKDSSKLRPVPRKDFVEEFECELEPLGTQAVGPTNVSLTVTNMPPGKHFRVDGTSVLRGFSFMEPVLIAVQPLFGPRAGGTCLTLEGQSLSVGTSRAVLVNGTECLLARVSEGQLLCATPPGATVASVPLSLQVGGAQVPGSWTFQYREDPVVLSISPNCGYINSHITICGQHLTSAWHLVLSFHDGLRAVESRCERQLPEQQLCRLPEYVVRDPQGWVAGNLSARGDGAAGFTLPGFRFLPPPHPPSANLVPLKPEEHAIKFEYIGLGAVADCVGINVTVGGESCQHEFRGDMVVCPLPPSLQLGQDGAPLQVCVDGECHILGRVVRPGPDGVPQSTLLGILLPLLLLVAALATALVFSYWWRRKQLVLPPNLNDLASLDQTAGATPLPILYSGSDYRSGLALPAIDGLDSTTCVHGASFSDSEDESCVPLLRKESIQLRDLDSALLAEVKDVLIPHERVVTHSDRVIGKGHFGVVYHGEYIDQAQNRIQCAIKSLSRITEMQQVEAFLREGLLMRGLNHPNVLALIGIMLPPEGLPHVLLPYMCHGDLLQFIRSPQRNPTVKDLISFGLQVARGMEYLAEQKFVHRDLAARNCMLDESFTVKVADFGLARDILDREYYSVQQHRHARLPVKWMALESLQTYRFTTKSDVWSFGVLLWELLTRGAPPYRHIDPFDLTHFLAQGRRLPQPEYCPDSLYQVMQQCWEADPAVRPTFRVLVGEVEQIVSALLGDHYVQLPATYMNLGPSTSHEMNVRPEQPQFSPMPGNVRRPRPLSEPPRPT
# UniProt Q86QH4, 1-128 partner: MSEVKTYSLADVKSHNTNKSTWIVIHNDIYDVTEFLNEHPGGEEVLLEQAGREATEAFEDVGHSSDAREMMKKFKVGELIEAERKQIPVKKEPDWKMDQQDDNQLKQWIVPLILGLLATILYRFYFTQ
# UniProt Q86QH5, 1-679 partner: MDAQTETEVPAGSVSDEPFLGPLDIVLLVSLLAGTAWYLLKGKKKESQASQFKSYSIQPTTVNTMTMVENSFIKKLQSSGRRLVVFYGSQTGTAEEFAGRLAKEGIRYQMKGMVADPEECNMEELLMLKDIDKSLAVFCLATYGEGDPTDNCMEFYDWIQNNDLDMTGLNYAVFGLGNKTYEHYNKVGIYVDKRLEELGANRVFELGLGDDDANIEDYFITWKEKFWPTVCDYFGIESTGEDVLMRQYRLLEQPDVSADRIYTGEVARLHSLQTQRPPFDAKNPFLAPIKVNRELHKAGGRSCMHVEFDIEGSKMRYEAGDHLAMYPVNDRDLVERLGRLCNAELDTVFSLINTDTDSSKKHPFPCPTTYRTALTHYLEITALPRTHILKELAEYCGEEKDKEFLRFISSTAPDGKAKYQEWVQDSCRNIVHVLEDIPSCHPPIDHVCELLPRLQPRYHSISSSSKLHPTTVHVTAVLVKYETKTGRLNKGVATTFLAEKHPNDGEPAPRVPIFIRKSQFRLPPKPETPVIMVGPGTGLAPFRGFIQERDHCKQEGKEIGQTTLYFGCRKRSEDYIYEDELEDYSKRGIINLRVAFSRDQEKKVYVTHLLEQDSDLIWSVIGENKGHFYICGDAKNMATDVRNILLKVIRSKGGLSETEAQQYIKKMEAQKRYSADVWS
# Protocols differ between the studies behind these lines. Numbers after ± are the reported error.
# Oprk1: Kappa-type opioid receptor (Oprk1, Mus musculus, UniProt P33534)
Molecule,target,assay,test system,conditions,scale,measurement,value
CCCCOP(=O)(OCCCC)OCCCC,"PPARG (Homo sapiens, UniProt P37231)","reporter gene, agonist",HEK293,,reference: rosiglitazone maximum,EC15,5.86 µM
O=C(O)c1ccccc1[As](=O)(O)O,"SMPD1 (Homo sapiens, UniProt P17405)",enzyme activity,,pH 5.0,reference: HMU-PC over sphingomyelin substrate,potency ratio,35.3 fold
CCCC(=O)SCC[N+](C)(C)C,"Cholinesterase (BCHE, Homo sapiens, UniProt P06276)",substrate,,"pH 8.0, 22 °C",,Km,15 ± 3 µM
CCN1CCN(Cc2ccc(NC(=O)c3ccc(C)c(/C=C/c4cnc5[nH]ccc5c4OC)c3)cc2C(F)(F)F)CC1,"MAP3K2 (Homo sapiens, UniProt Q9Y2U5)","inhibitor, cell-based kinome screen",,5 µM,reference: vehicle,log2 fold change,-0.075
O=c1[nH]c(CC2CCCCC2)cc(O)c1-c1ccccc1,"inhA (Mycobacterium tuberculosis, UniProt P9WGR1)",thermal shift,,with: NAD+ ternary complex,,melting temperature,56.3 °C
CCOc1ccc2c(c1)Oc1cc(OCC)ccc1C21OC(=O)c2ccccc21,"cyp6p3 (Anopheles gambiae, UniProt Q8T632)",substrate,,dual plasmid expression,,Km,0.9 ± 0.09 µM
CN(C(=O)Cc1ccc(Cl)c(Cl)c1)[C@H](CN1CCCC1)c1ccccc1,Oprk1,agonist,,mouse receptor,"reference: larger over smaller RAi, vs dynorphin A",bias factor,10
U-69593,"OPRK1 (Homo sapiens, UniProt P41145)","ERK1/2 phosphorylation, agonist, in-cell western",CHO expressing human KOR,,reference: reference agonist,Emax,100%
CC#C/C(=N\OC[C@H]1COCCN1)c1ccc2ncnc(Nc3ccc(OCc4cccc(F)c4)c(Cl)c3)c2c1,"MST1R (Homo sapiens, UniProt Q04912)",kinase activity,,10 µM,,inhibition,19.5%
ethoxymethyl salvinorin B,Oprk1,agonist,,mouse receptor,"reference: larger over smaller RAi, vs dynorphin A",bias factor,6.9
